Assay results gathered from unrelated publications.
Lines come from different studies, so protocols differ.

Molecule | organism | test | test system | conditions | MIC
Clc1cccc(NCc2ccc(Oc3ccccn3)cc2)c1 | Mycobacterium tuberculosis |  | H37Rv, 7H9/ADC/Tween medium | 1 weeks | 40 µM
CCc1cc(=O)c2c(OCC(O)CN(CC)CC)c3ccoc3c(OC)c2o1 (centres unmarked) | Staphylococcus epidermidis | broth microdilution | ATCC 12228 | 19 h, 35 °C | > 256 µg/mL
CC1(C)S[C@@H]2[C@H](NC(=O)[C@H](N)c3ccccc3)C(=O)N2[C@H]1C(=O)O | Escherichia coli | broth microdilution | BW25113, Mueller-Hinton broth | added: CCCP 50 µg/mL | 1.56 µg/mL
c1ccc(NCc2ccc(Oc3ccccn3)cc2)cc1 | Mycobacterium tuberculosis |  | H37Rv, 7H9/ADC/Tween medium | 2 weeks | > 50 µM
CC1(C)SC2C(NC(=O)C(NC(=O)C3=C(O)C(Cc4ccsc4)NC3=O)c3ccccc3)C(=O)N2C1C(=O)O (centres unmarked) | Escherichia coli | broth microdilution | BW25113, Mueller-Hinton broth | 18 h, without clavulanic acid | 50 µg/mL
Brc1cccc(NCc2ccc(Oc3ccccn3)cc2)c1 | Mycobacterium tuberculosis |  | H37Rv, GAST-Fe medium | 1 weeks, pH 6.6 | 35 µM
Cc1ccc(S(=O)(=O)N2C(=O)CSC2c2cccc(F)c2)cc1 (centres unmarked) | Salmonella enterica | microbial growth, broth dilution | TYPHIMURIUM |  | 64 µg/mL
Cc1[nH]c(C(=O)Nc2ccc(C(=O)O)cc2N2CCNCC2)c(Cl)c1Cl.Cl | Enterococcus faecium | microbial growth, broth dilution | ATCC35667 |  | > 32 µg/mL
Brc1ccc(NCc2ccc(Oc3ccccn3)cc2)cc1 | Mycobacterium tuberculosis |  | H37Rv, 7H9/ADC/Tween medium | 2 weeks | 70 µM
pneumocandin A0 | Candida tropicalis | broth microdilution, resazurin | ATCC 750 | 24 h, 35 °C | 1.6 µg/mL
CC1(C)SC2C(NC(=O)C(NC(=O)C3=C(O)C(c4ccccc4)NC3=O)c3ccccc3)C(=O)N2C1C(=O)O (centres unmarked) | Escherichia coli | broth microdilution | BW25113, Mueller-Hinton broth | added: CCCP 50 µg/mL | 12.5 µg/mL
KTLTGKTITLE | Mycolicibacterium smegmatis |  | peptide, mc^2155, 7H9 medium | overnight, 37 °C | 50 µM
plantazolicin | Neisseria sicca |  | ATCC 29256 | 12 h, 37 °C | > 48 µM
Cc1ccc(S(=O)(=O)N2C(=O)CSC2c2ccccc2O)cc1 (centres unmarked) | Salmonella enterica | microbial growth, broth dilution | TYPHIMURIUM |  | 64 µg/mL
Cc1[nH]c(C(=O)Nc2ccc(C(=O)O)cc2N2CCN(C(=O)OC(C)(C)C)CC2)c(Cl)c1Cl | Enterococcus faecium | microbial growth, broth dilution | ATCC35667 |  | 16 to 32 µg/mL
Cc1ccc(S(=O)(=O)N2C(=O)CSC2c2ccccc2F)cc1 (centres unmarked) | Salmonella enterica | microbial growth, broth dilution | TYPHIMURIUM |  | 16 µg/mL
Cc1ccccc1NCc1ccc(Oc2ccccn2)cc1 | Mycobacterium tuberculosis |  | H37Rv, 7H9/ADC/Tween medium | 1 week | 40 µM
Cc1ccc(S(=O)(=O)N2C(=O)CSC2c2ccc(F)cc2)cc1 (centres unmarked) | Salmonella enterica | microbial growth, broth dilution | TYPHIMURIUM |  | 8 µg/mL
Cc1[nH]c(C(=O)Nc2ccc(C(=O)O)cc2N2CCCC(CNC(=O)OC(C)(C)C)C2)c(Cl)c1Cl (centres unmarked) | Enterococcus faecium | microbial growth, broth dilution | ATCC35667 |  | > 32 µg/mL
CCc1cc(=O)c2c(OCC(O)CNC(C)C)c3ccoc3c(OC)c2o1 (centres unmarked) | Staphylococcus epidermidis | broth microdilution | ATCC 12228 | 19 h, 35 °C | > 256 µg/mL
Cc1ccc(S(=O)(=O)N2C(=O)CSC2c2cccc(O)c2)cc1 (centres unmarked) | Salmonella enterica | microbial growth, broth dilution | TYPHIMURIUM |  | 64 µg/mL
COc1ccc2ncc(F)c(CCN3CCC(/C=C\c4ccc5c(c4)NC(=O)CO5)CC3)c2n1 | Salmonella enterica | microbial growth, broth dilution | ATCC14028 TYPHIMURIUM |  | 64 µg/mL
COc1cccc(NCc2ccc(Oc3ccccn3)cc2)c1 | Mycobacterium tuberculosis |  | H37Rv, GAST-Fe medium | 2 weeks, pH 6.6 | 20 to 40 µM

Excerpt of the above:
Molecule | organism | test | test system | conditions | MIC
Brc1ccc(NCc2ccc(Oc3ccccn3)cc2)cc1 | Mycobacterium tuberculosis |  | H37Rv, 7H9/ADC/Tween medium | 2 weeks | 70 µM
COc1ccc2ncc(F)c(CCN3CCC(/C=C\c4ccc5c(c4)NC(=O)CO5)CC3)c2n1 | Salmonella enterica | microbial growth, broth dilution | ATCC14028 TYPHIMURIUM |  | 64 µg/mL
